Experimental data of several laboratories.
Every numbered part comes from another study and shows a few of its results, in no order.

Sample 1 — method: aptamer microarray, sandwich; molecule type: DNA with 2'F-ANA; matrix: in vitro; concentration: 200 nM; together with: Cy3 exosite-II aptamer, 400 nM; reading: higher = stronger binding; strand: GGTTGGTGTGGTTGG
Target: Prothrombin, mature alpha-thrombin (F2, Homo sapiens, UniProt P00734)
Setting: whole 15-mer aptamer, many near background
Modification	mean fluorescence intensity
2'F-ANA at 2 3 4 6 7 9 12 15	707 a.u.
2'F-ANA at 3 4 15	782 a.u.
2'F-ANA at 1 2 6 7 8 9 10 11 13	52.4 a.u.
2'F-ANA at 1 5 10 12 15	50.9 a.u.
2'F-ANA at 1 3 8 10 11 13	77.2 a.u.
2'F-ANA at 3 5 13 15	86.9 a.u.
2'F-ANA at 1 3 5 11 14 15	53.8 a.u.
2'F-ANA at 2 3 8 9 12 13 15	870 a.u.
2'F-ANA at 1 6 7 8 13	150 a.u.

Sample 2 — method: RNA Bind-n-Seq; molecule type: RNA; matrix: in vitro; concentration: not given; setting: RNA with constant flanks, ends assumed; baseline: input RNA pool; reading: higher = stronger binding
Target: RING finger protein unkempt homolog, zinc fingers 1-6, GST-SBP tag (UNK, Homo sapiens, UniProt Q9C0B0, residues 30-357)
Sequence of UniProt Q9C0B0 (30-357, looked up): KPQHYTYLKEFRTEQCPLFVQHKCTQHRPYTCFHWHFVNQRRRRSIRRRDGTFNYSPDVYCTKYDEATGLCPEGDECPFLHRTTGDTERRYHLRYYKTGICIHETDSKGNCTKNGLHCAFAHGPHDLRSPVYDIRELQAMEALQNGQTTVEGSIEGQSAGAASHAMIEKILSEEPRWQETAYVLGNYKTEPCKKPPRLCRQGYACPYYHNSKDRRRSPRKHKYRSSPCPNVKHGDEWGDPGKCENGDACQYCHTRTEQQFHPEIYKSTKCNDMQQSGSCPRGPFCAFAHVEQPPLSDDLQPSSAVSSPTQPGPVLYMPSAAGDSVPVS
Shared flanks, not repeated: GGGAGUUCUACAGUCCGACGAUC … CAACAGAGGAUUGAGCAUCA
Strand	bound/input enrichment [ratio]
CUUUGUGUUCAUGGUGGACUUUCACCAGAAAUACACACACUGGAUGAUAUUAGGAGAUCCGACCGAUUUAAAGAGCCACCUGCAUUUGGACCAAUGUGUGACUUGCUAUGGUCUGAUCCU	0.149
GGAGACAACAAACAAACCACUGUGUCGAACUCCCAGCAGGCUUACCAGGAAGCAUUUGAAAUCCGUAAGAAAGAAAUGCAGCCUACACACCCAAUUCGUCUUGGUCUGGCACUAAAUUUC	0.177
AUUAAUGCCCUUACUCUAUUUGAGAUUAUCUAUGACAAUCUCAGAGCAGAAGUGUUUAACUACCGAGAAUUCAAUAAAGGUUCCCUUUUUUACUUAUGCACUACAUCUGGAGUGUGUGUU	0.138
GCCCAUGAGAAGCUAGACAAUAAGAAGGAGUGUUUAGAAGACGUCACUGCUGUGUGUAUAUCCGAAGGGUUUCAAAAUGAGCAGAGCAUGCUGUUAGCUGAUAAAGUUCUUAAACUUCUU	0.278
AUAUCCAGUGGCCUAGAAUUUGUAUCCCACAACCCACCCAGUGAAGCAGCUACUCCUCCAGCCGCAAGGACCAGUCCCUCGGGGGGAACGUGGUCAUCAGUGGUCAGUGGGGUUCCAAGA	0.107
CAGCUGUGUCUUCUAAAGUGGAUCAGUGAGAGAGGCUCCUGGACCUGCGAGCUGUGCUGUUACCGAUACCACGUCACAGCCAUUAAAAUGAAGCAACCUUGCCAGUGGCAGAGCAUUUCU	0.12
AAUGCUUGUUGGGUGCAUAAACAUUUCACAGAGGAUAUCCAGACACGUCAGUAUAGGUCCACCGAGGUUUUAAUAGGAGCAGGCUACAGCACACCUGCAGACAUUUGGAGUACAGCUUGC	0.659
GACACUCUCAUCAAGACCUUUGUGCGCUCGCAGACCACCCAAGUGCAUGAUGGGAAAGGUAUCCGAUUUACUGCUAAUGAGGACAUUCGUCCGGAAAAGGGGUCUGGUGUGGACGAUCCU	0.196

Sample 3 — method: protein binding microarray; molecule type: double-stranded DNA, one strand shown; matrix: in vitro; concentration: not given; baseline: not given; reading: higher = stronger binding
Target: Histone acetyltransferase KAT6A, winged helix 2, GST fusion (KAT6A, Homo sapiens, UniProt Q92794, residues 85-181)
Setting: 8-mer, flanks averaged, mean of 2 arrays, mostly near background
Construct (chain): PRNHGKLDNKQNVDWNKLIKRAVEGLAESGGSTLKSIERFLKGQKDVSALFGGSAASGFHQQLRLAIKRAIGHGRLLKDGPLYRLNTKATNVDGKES
Strand	E-score
CGGATCAG	0.114
CCTGAGTA	0.0789
ACGTCGCG	0.0422
CTTCAGAA	0.0421
GGATATCC	0.0825
ATGCGTAC	-0.0573
GCCAGAGA	0.0286
CGAAGGAA	0.116
CTCGTTGC	0.171
GAGACTTA	-0.113

Mixed results
Substance	target	test	system	conditions	how to read	quantity	result
PhoQ, residues 284 288 289 292 302 303 ALVSVA	PhoP, residues 12 14 15 18 19 GQALL (Escherichia coli, UniProt P23836)	Sort-seq, item: YFP reporter	E. coli	PhoQ-PhoP variant library, together with: 10 µM Mg2+	baseline: high Mg2+ state, higher = stronger signaling	fold induction	21.9

For quick reference, copied from above (sample 1):
Modification	mean fluorescence intensity
2'F-ANA at 3 5 13 15	86.9 a.u.
2'F-ANA at 2 3 4 6 7 9 12 15	707 a.u.
2'F-ANA at 2 3 8 9 12 13 15	870 a.u.
